Measurements pooled from the literature.
A part holds a random share of what one study measured.

Study 1
Target: RING finger protein unkempt homolog, zinc fingers 1-6, GST-SBP tag (UNK, Homo sapiens, UniProt Q9C0B0, residues 30-357)
Technique: RNA Bind-n-Seq
Form: RNA
Sample: in vitro
Tested at: not given
Notes: RNA with constant flanks, human and mouse sites, ends assumed
Reference: input RNA pool
Direction: higher = stronger binding
Residues (chain): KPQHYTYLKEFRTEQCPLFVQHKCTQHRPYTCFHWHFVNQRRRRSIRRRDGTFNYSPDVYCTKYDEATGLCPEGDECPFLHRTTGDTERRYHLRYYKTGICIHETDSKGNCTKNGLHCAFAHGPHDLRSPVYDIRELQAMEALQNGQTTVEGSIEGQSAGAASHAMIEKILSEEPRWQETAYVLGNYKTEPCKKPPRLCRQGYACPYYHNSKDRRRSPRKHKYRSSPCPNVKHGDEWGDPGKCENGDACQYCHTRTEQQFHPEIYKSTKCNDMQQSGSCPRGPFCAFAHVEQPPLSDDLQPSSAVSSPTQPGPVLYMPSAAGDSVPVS
Sequence	bound/input enrichment [ratio]
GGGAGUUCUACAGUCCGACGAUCAGUGAUCCACCGUACAUGGAGAUGAAGGGAAAGGCGUCAGAGAAACUCUCUGAAAACAGUAAAAUAUUAAUCUCUAUGGCUAAGGAGAACAUUCCACCAAGCAGCCAACAACAGCCCAAGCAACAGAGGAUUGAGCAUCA	0.21
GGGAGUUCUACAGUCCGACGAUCGGAGGACACACUGAACUGAAGGGGACUUGCGCGGAUGUGGGAGAUGCAAGCCUUCGCUUUAUUUUUUUAUAACUAUCAACUGCCAUCAUGUUUUGUAAUUUGGGGAUCUUGAUUUCACCGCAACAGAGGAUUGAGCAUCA	1.79
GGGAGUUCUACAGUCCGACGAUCCUACAGUGAAACGGGAGAACUGCUUGGUUCGGGAUGGCUAGAGAAUCAAGGGAAAGCACAACCUUGGACUCACACUCUGCAGAGGACCAGAUGGAGCUACUGGUCAUAAAGGUGGAACAACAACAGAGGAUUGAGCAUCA	0.28
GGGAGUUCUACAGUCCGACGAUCGACCCAGAAAAUAAUCGGGGACAAGAAUCCUUUCCUAGGACUGCUGGACAAGAGGAUCGUAGUCUAAAAAUUAUCAAAAGAACAAAGAAACCCGACCUGCAGAUCUAUCAGCCUGGACGACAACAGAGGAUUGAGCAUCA	1.02
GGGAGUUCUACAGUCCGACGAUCUCUUCAACCUGAUCAAGAGGCCAGAUGAUGAGCAAAGGCAAAUGAUACUGACAGGAUGUGUGGCAUUUGCACGUCAUGUUGGACCAACACGUGUGGAGGCUGAACUUUUACCUCAGUGUUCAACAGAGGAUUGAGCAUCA	0.0895
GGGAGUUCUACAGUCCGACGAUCCUAUUCGACUUAGGCUCCAACGUAACUGCAAUUUAAUGUUGGUAGUAUAGCAAAUUAUGAAUAGAUUUGUUGUAUGUUUUGAAGUCACAUGCUUACAUGCUUAAAUCUGGAUAUCAGAAUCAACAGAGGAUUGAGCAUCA	0.893
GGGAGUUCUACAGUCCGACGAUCAGGGUUGAUGUUCUGAAGAACCACUUGGUGAAAGAAGGUCGAGUAGAUGAAGAAAUUGCGCUUAGAAUUAUCAAUGAGGGUGCUGCCAUCCUUCGGAGAGAGAAAACCAUGAUAGAAGUACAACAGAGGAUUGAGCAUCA	14.5
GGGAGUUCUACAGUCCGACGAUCGAAUAAUGAAAAAUCUAGAUCAAUUCUUCAAUUUGAUUGAACUGUUCAGCCUUUUCAAGAUUUCUUUAUUUACAAAUGAUUACAUUUAAAUGAAUGUACAUUCUUCUCACUGACUUUGGUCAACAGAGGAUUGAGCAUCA	0.174

Study 2
Target: Ras GTPase-activating protein-binding protein 1, C-terminal RGG region (G3BP1, Homo sapiens, UniProt Q13283)
UniProt Q13283, sequence (whole entry, looked up): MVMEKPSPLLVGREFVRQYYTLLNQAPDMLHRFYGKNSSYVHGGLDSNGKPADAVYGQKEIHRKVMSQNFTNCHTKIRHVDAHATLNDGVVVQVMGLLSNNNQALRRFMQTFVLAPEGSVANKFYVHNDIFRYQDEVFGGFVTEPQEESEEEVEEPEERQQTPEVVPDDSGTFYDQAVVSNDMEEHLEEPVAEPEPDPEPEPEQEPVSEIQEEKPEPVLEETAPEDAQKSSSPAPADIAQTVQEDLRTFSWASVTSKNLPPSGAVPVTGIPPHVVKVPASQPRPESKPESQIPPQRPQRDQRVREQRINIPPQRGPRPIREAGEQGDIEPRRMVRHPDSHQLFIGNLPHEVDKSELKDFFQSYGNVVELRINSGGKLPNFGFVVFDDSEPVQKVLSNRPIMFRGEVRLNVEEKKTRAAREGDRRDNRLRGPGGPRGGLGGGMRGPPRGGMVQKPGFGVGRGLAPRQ
Technique: RNA Bind-n-Seq
Form: RNA
Sample: in vitro
Tested at: 1 µM
Notes: whole 134-nt RNA, ends assumed
With: 150 mM KCl
Reference: input library
Direction: higher = stronger binding
Sequence	log2 enrichment
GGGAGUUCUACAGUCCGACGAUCCACAGACAACACGCACCCACACAGACACAGAGGGAAGGGGUGGGGAUGGGGACAGGGUGCACAGCAGGGCGGGGUAGGACCCCAGCCCCUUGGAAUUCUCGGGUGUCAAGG	0.635
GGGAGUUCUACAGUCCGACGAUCGCAGGAAGUAAAAACAAAUGGAAAUGCUUCGGAUAGUGGCAGGGGUGGGGGUUGCUAAUGAAAGGGUGGGAUGGGAGUGGGUAAAGAGUUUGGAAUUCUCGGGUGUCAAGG	2.24
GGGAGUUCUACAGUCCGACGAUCACCAUGCAGGUGGGCAUCUUUGGGAAGUGGAGCAAGGGGGGGAUAGGGAGGGGGGUAACACUUUGGGAACAGGUGGUCCCAGGUCGUUUCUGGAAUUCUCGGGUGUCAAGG	-1.45
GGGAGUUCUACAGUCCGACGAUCCAAGUCCUGUGCUACACAUCGUAUGUACCGAAUCGGGGAGGGGUGGGGUUUGGGGAAAGUAUUAUGUUACGCCGUUCGGAUCUGCACUUCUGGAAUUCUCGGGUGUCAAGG	2.46
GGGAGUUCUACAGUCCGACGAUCAAGUCCUGUGCUACACAUCGUAUGUACCGAAUCGGAAAAAAAGGUUUGGUUUUUGGAAAGUAUUAUGUUACGCCGUUCGGAUCUGCACUUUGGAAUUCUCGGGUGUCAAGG	-1.89
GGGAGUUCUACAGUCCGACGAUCAAGUCCUGUGCUACACAUCGUAUGUACCGAAUCGGGGUUUGGGGUUUGGGUUUGGGGAAAGUAUUAUGUUACGCCGUUCGGAUCUGCACUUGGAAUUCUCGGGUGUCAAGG	1.36
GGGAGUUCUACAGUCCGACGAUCCACAGACAACACGCACCCACACAGACACAGAGGGAAGGGAUUGGGAUGGGGACAGGGUGCACAGCAGGGCGGGGUAGGACCCCAGCCCCUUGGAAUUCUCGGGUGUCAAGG	-0.4
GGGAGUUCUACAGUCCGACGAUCUUUAGGUGUUAGACGGUACCGACAACCAGUAUUUGGGCCUGCAGAUUGGACAGCCCCAGGAUGAAGAUGAGGAAGCCACAGGUAUUCUUCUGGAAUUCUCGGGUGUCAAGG	-2.01
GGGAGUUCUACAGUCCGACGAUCACCAUGCAGGUGGGCAUCUUUGGGAAGUGGGGCAAGGGGGGGAUAGGGAGGGGGGUAACACUUUGGGGACAGGUGGUCCCAGGUCGUUUCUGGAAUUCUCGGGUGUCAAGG	2.24

Study 3
Target: Histone acetyltransferase KAT6A, winged helix 2, GST fusion (KAT6A, Homo sapiens, UniProt Q92794, residues 85-181)
Technique: protein binding microarray
Form: double-stranded DNA, one strand shown
Sample: in vitro
Tested at: not given
Notes: 8-mer, flanks averaged, mean of 2 arrays, mostly near background
Reference: not given
Direction: higher = stronger binding
Construct (chain): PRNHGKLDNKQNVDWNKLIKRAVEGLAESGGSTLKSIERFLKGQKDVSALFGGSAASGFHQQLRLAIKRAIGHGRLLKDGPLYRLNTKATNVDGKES
Sequence	E-score
CTTTCAGA	0.0722
CTAGCGGC	0.0616
CGAGCGTA	0.0174
TAACAGCA	0.136
ATCCAGAG	0.0975
CTCCGGTC	0.137
GAGACCCC	-0.129
AGTGGTTA	-0.172
CCGGATCC	0.0198
AGCTGTTC	-0.0687
CGCCTAGA	-0.0264
ATGATCGA	-0.135
CATATCAA	0.0847
AACCCACC	0.144
ATTGGAAC	0.0205
AGCGGTAC	0.00304
CAAGTCAA	-0.23
ACGCAATG	0.0331
ACCACAAC	0.0294
CATAGGCG	-0.08
GGAGTGCC	0.191
CCGTGCCC	0.025
AAAGCCGA	-0.179
ACGGTGAC	-0.182
GGAACCCC	-0.054

Study 4
Target: Interferon regulatory factor 7, full length, phosphomimetic (IRF7, Homo sapiens, UniProt Q92985, residues 1-503, S101K/S471D/S472D/S475D/S476D/S477D/S483D/S484D/S487D)
Technique: protein-binding microarray
Form: double-stranded DNA, one strand shown
Sample: in vitro
Tested at: 250 nM
Notes: 60-bp whole probe
With: salmon DNA 0.4 mg/ml
Reference: random background probes
Direction: higher = stronger binding
Constant ends, left off below: GCCTAGCAC … GTCTTGATTCGCTTGACGCTGCTG
Residues (chain): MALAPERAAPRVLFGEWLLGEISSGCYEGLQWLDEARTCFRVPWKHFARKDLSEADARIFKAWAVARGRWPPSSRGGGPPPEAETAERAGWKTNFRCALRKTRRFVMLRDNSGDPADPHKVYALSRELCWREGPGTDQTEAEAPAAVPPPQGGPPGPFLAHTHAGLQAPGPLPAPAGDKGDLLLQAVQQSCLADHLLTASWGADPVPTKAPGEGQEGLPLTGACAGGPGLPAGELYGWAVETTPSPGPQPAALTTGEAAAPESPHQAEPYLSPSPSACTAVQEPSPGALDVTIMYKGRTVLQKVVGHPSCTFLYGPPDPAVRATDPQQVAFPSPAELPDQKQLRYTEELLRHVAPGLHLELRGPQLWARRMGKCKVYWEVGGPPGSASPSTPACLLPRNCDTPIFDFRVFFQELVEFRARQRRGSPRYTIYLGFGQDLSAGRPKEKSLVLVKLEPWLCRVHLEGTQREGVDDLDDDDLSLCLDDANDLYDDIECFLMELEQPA
Sequence	log fluorescence [z-score]
GACGAACTGAGTTTCGAGATGTGCTAG	4.82
TTAGGTATCTGACTGGGTTAGTGCTAG	-0.389
TTTGCATTGCTTCTATAGGCGTGCTAG	-0.469
CCCAATTCTCTTTTCACTTTGTGCTAG	2.01
CCTTGTCCCCTCAGGTATGGGTGCTAG	0.819
TTAGGTATCAGACTGGGTTAGTGCTAG	-0.117
GTTTGTCCCTATTTAAGATAGTGCTAG	5.17
GACGGTTGCGGACTGGGGACGTGCTAG	-0.465
TCAAATTTTGCTTCTAGACTGTGCTAG	-0.139
CTTTCTTTTTTTCTTTTATTGTGCTAG	3.25
TTAGGACTGGGACTGGGTTAGTGCTAG	0.0408
GTAGGACTGGACTTTCGGTTAGTGCTA	0.051
GACCGTATCGACTATCGGGACGTGCTA	0.308
GACGGTTACCTTATCCTGACGTGCTAG	-0.17
GACGGTTTCGATTTCGGGACGTGCTAG	13.5
GACGGTATCGGATTGGGGACGTGCTAG	1.86
GCCGAACTGGGGACTGGAGACGTGCTA	-0.805
TTACGTTTCGACACTGGGTTAGTGCTA	2.01
CAATATATATATTATATATTTGTGCTA	0.663

A few entries again (study 3):
Sequence	E-score
CATATCAA	0.0847
AACCCACC	0.144
ATTGGAAC	0.0205
AGCGGTAC	0.00304
CAAGTCAA	-0.23
ACGCAATG	0.0331
ACCACAAC	0.0294
